Experimental data pooled from the literature.
A part holds a random share of what one study measured. Substitutions count along the parent as printed.
Chain of UniProt P11229 (whole entry, looked up): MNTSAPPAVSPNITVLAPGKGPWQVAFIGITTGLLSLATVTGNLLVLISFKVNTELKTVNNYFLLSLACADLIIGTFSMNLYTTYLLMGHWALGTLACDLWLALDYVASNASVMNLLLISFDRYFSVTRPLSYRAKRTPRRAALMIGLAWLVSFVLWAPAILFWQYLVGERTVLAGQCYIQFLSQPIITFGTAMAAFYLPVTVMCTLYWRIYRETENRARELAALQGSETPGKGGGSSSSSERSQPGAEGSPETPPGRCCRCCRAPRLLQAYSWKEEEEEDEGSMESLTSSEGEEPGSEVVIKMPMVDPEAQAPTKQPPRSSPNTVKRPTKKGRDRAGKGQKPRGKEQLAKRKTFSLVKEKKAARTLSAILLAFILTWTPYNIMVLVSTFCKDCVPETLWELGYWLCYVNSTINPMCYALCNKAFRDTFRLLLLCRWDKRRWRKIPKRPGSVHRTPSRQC

Block 1
Target: PABPC1L2, full length, GST fusion (mouse, UniProt A0ABA7IW68)
Method: RNAcompete
Form: RNA
Matrix: in vitro
Tested at: 20 nM
Notes: 7-mer, probes averaged, single round
Reference: mean of 7-mers
Reading: higher = stronger binding
Target sequence (chain): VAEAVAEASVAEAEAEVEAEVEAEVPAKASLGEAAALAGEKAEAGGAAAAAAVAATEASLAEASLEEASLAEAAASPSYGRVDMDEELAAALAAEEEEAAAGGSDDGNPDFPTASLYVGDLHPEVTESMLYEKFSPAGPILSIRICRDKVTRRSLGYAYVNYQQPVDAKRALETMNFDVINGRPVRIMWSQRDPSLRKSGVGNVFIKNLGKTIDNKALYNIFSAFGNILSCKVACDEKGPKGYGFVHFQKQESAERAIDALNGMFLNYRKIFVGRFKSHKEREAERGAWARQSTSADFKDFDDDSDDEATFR
Sequence	7-mer Z-score
UGGGUGC	0.017
UACUGCG	-0.264
GUACUAU	-0.229
CCCCGAG	-0.421
CAUAUCG	-0.162
UGUUGAC	-0.253
GUAUUCU	-0.309
ACCUGCC	-0.32

Block 2
Target: HLA class I histocompatibility antigen, C alpha chain, allele C*04:01 (Homo sapiens, UniProt P10321)
Read-out: peptide-MHC binding
Form: peptide
Tested at: concentration not given
Sequence	binding
MLYPLLWMF	inactive
LSDAARLFL	inactive
KIFKVTGEF	inactive
RRRPVTRPL	inactive
MVIFFMSPK	inactive
KYFIPVIEI	inactive
TTDDSTSYY	inactive
FTFKVNSVK	inactive

Block 3
Target: CCNB2, cyclin fold, Cln2 fusion (human)
Method: yeast growth competition, sequencing
Matrix: yeast
Notes: weak parent motif
Reference: not given
Reading: higher = stronger binding
Starting sequence: viral docking peptide; KGVKRKLFAEDSS
Variant	normalised enrichment score
KGVKRILFAEDSS [K6I]	0.548
KGVKRKLFAADSS [E10A]	0.893
KGVKRKRFAEDSS [L7R]	0.75
KGVKRKLFATDSS [E10T]	0.749
KGVKRKLFALDSS [E10L]	0.574
KGVKRKLFAEDTS [S12T]	1.22
KGVKRKLDAEDSS [F8D]	0.104
KMVKRKLFAEDSS [G2M]	0.497
KGVKRKLFAEMSS [D11M]	0.296
KGVKRKLFAVDSS [E10V]	0.515
KGAKRKLFAEDSS [V3A]	0.408
KGVKRKLFAEFSS [D11F]	1.58
KGVKRKLFAEDSA [S13A]	0.972
KGVKRKLMAEDSS [F8M]	0.103
KGVKRHLFAEDSS [K6H]	0.696
KGVHRKLFAEDSS [K4H]	0.612

Other studies, line by line
Structure (SMILES)	target	assay	conditions	quantity	result
Cc1cc2c(-c3ccco3)cnc(N[C@H]3CCN(C)C[C@@H]3C(=O)NC3CCCCC3)c2[nH]c1=O	Muscarinic acetylcholine receptor M1 (CHRM1, Homo sapiens, UniProt P11229)	ligand displacement	10 µM	inhibition	12%

Some of these lines once more (block 2):
Sequence	binding
LSDAARLFL	inactive
KIFKVTGEF	inactive
